Assay results pooled from the literature.
Each numbered part is a random draw from the data of one study; scales do not carry over between parts.

Block 1 — technique: universal PBM; molecule type: double-stranded DNA, one strand shown; medium: in vitro; concentration: 600 nM; direction: higher = stronger binding
Target: Sal-like protein 4, full length isoform A (SALL4, Homo sapiens, UniProt Q9UJQ4, residues 1-1053)
UniProt Q9UJQ4, sequence (whole entry, looked up): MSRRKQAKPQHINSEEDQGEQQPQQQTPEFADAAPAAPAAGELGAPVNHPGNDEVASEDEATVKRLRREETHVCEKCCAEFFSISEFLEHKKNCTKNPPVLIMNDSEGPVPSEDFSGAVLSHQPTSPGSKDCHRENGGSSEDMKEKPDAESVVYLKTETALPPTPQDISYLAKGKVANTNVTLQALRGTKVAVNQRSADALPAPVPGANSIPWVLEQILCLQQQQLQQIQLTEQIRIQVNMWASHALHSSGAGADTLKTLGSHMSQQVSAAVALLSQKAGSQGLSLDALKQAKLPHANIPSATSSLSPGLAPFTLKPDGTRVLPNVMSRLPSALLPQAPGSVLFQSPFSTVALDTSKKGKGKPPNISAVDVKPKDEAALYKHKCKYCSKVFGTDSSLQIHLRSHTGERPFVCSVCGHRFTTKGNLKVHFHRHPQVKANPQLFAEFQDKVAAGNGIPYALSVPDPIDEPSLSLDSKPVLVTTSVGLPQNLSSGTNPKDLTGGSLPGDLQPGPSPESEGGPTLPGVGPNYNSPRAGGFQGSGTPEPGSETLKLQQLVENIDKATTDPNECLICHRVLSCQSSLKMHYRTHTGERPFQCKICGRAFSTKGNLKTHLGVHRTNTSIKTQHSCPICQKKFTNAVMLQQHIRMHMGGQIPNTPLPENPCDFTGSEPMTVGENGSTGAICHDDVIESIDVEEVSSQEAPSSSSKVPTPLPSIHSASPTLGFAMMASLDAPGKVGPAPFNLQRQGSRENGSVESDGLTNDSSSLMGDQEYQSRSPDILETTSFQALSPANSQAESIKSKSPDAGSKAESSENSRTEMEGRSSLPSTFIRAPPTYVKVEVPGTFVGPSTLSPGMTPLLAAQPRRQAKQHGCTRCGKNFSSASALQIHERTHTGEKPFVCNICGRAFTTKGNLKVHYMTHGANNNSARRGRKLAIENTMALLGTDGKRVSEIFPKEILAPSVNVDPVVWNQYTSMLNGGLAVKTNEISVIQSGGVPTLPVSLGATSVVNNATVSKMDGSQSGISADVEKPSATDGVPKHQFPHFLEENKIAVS
Setting: 8-mer, flanks averaged, mean of replicates
| Sequence | E-score |
| --- | --- |
| AAAACCCA | 0.0659 |
| CCATGGGA | -0.197 |
| AGTGGAAG | -0.227 |
| GTTAAAGA | 0.149 |
| CAATCCCC | 0.00355 |
| GAAATGTC | 0.0492 |
| AACGCTAA | -0.0578 |

Block 2 — technique: protein binding microarray; molecule type: double-stranded DNA, one strand shown; medium: in vitro; concentration: not given; reference: not given; direction: higher = stronger binding
Target: Histone acetyltransferase KAT6A, both winged helices, GST fusion (KAT6A, Homo sapiens, UniProt Q92794, residues 1-181)
Setting: 8-mer, flanks averaged, mean of 2 arrays, mostly near background
Residues (chain): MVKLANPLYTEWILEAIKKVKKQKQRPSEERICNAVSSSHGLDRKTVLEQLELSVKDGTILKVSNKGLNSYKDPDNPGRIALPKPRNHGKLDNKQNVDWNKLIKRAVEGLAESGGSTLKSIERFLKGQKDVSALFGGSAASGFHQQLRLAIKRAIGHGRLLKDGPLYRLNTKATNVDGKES
| Sequence | E-score |
| --- | --- |
| ACTGATCC | -0.0619 |
| ATTATCCA | 0.061 |
| ATTGTGTG | -0.0501 |
| ATTTGAGG | -0.0968 |
| ATGCAGAG | -0.134 |
| CGACATCG | 0.129 |
| GCCTGTCC | -0.085 |

Block 3 — technique: RNA Bind-n-Seq; molecule type: RNA; medium: in vitro; concentration: 200 nM; setting: whole 134-nt RNA, ends assumed; together with: 150 mM KCl; reference: input library; direction: higher = stronger binding
Target: Fragile X messenger ribonucleoprotein 1, C-terminal low-complexity region (Fmr1, Mus musculus, UniProt P35922)
Shared flanks, not repeated: GGGAGUUCUACAGUCCGACGAUC … UGGAAUUCUCGGGUGUCAAGG
| Sequence | log2 enrichment |
| --- | --- |
| UGGCCCUAGUGGCAUGCGGGGAGGAAGAGGUGGCCUCAUGGAUCGUGGUGGUCCCGGUGGAAUGUUCAGAGGUGGCCGUGGUGGAGACAG | 0.0389 |
| GCAGGAAGUAAAAACAAAUGGAAAUUCUUCGGAUAGUGGCAGGGGUGGGGGUUGCUAAGGAAAGGGUGGGAUGGGAGUGGGUAAAGAGUU | -0.0153 |
| CAAGUCCUGUGCUACACAUCGUAUGUACCGAAUCGGAAAGGGAAAGGGGAAAGGGAAAGUAUUAUGUUACGCCGUUCGGAUCUGCACUUC | -0.13 |
| UAACUUUAGAGGAGGAUCUGACGGAUAUGGCAGUGGACGUGGAUUUGGGGAUGGCUAUAAUGGGUAUGGAGGAGGACCUGGAGGUGGCAA | 0.318 |
| CACAGACAAAAAGCACCCACACAGACACAGAGGGAAGGGGUUGGGAUGGGGACAGGGUGCACAGCAGGGCGGGGUAGGACCCCAGCCCCU | 1.14 |

Mixed results
| Molecule | target | assay | system | setting | how to read | quantity | result |
| --- | --- | --- | --- | --- | --- | --- | --- |
| PhoQ, residues 284 288 289 292 302 303 SSYNSA | PhoP, residues 12 14 15 18 19 SHWTV (Escherichia coli, UniProt P23836) | Sort-seq, refers to: YFP reporter | E. coli | PhoQ-PhoP variant library, together with: 10 µM Mg2+ | reference: high Mg2+ state, higher = stronger signaling | fold induction | 2.13 |

A few entries again (mixed results):
| Molecule | target | assay | system | setting | how to read | quantity | result |
| --- | --- | --- | --- | --- | --- | --- | --- |
| PhoQ, residues 284 288 289 292 302 303 SSYNSA | PhoP, residues 12 14 15 18 19 SHWTV (Escherichia coli, UniProt P23836) | Sort-seq, refers to: YFP reporter | E. coli | PhoQ-PhoP variant library, together with: 10 µM Mg2+ | reference: high Mg2+ state, higher = stronger signaling | fold induction | 2.13 |
